# Published values of several laboratories.
# Protocols differ between the studies behind these lines. Several values in a cell are separate wells, animals, samples, runs or records.
SMILES,target or system,test,test system,setting,scale,quantity,result
CNS(=O)(=O)Nc1nccc(Cc2c(C)c3ccc(Oc4ncccc4F)cc3oc2=O)c1F,SW756,cell viability,,7 days,,IC50,39.8 nM
COc1cc2c(NC3CCN(C(C)C)CC3)cc(N3CCOCC3)nc2cc1OCCCN1CCCC1,,"TMT proteomics, measured: THY1","5xFAD mice, hippocampus",dose not given,baseline: untreated 5xFAD mice,log2 fold change,0.0458
c1ccc(-c2n[nH]cc2-c2ccnc3ccccc23)nc1,KIN2 (Candida albicans),"kinase binding, MIB/MS competition",Candida albicans lysate,1 µM,baseline: DMSO,log2 fold change,-0.07
COC1CN([C@H]2CC[C@H]([C@@]3(C)Oc4c(Cl)cc(C(=O)NCc5c(SC)cc(C)[nH]c5=O)c(C)c4O3)CC2)C1,,"RNA-seq, measured: EIF5A2","human, whole blood","dose not given, 24 h",baseline: pretreatment baseline,log2 fold change,1.02
COc1ccccc1-c1ccncc1C(=O)Nc1nnc(OCc2ccc(Cl)cc2)s1,PEO1 BRCA2-mutant ovarian cancer,,,"0.5 µM, added: olaparib 0.25 µM",,colony survival,9.68% and 0%
Cc1ncsc1-c1ccc(C(C)NC(=O)C2CC(O)CN2C(=O)C(NC(=O)CCCCCCCCCCN2CCCC(Nc3ncc(Cl)c(Nc4ccccc4S(=O)(=O)C(C)C)n3)C2)C(C)(C)C)cc1 (stereo not shown),22Rv1,"RNA-seq, measured: TAF12 mRNA",,concentration not given,baseline: DMSO,log2 fold change,-1.09
C=CC(=O)N1[C@@H](c2ccc3c(c2)OCO3)c2[nH]c3ccccc3c2C[C@H]1C(=O)N1CCN(C)CC1,CCNE1 WT-3xFLAG:CDK2 complex,"co-IP TMT proteomics, measured: ELP4",HEK-293T,"20 µM, 6 h",baseline: DMSO,log2 fold change,0
Nc1ncc(-c2cc(-c3cnn(CC(F)(F)F)c3)ncc2F)nc1C(=O)NC1CNCC(F)C1 (stereo not shown),PRKD1,KINOMEscan,,1 µM,baseline: DMSO control,remaining binding,60%
CCN(CC)CC(=O)Nc1cccc(-n2cc(-c3ccc4ccc(-c5cn(-c6cccc(NC(=O)CN(CC)CC)c6)nn5)cc4c3)nn2)c1,RCC4,"PCR angiogenesis array, measured: IGF1",,"5 x IC50, 2 h, normoxia",baseline: untreated,fold regulation,2.18
C=CC(=O)Nc1cccc(Cn2ncc3cnc(Nc4cnn(CCOC)c4)nc32)c1,ALK human,"binding, KINOMEscan",,100 nM,lower = stronger binding,percent of control,80%

# For quick reference, copied from above:
SMILES,target or system,test,test system,setting,scale,quantity,result
Cc1ncsc1-c1ccc(C(C)NC(=O)C2CC(O)CN2C(=O)C(NC(=O)CCCCCCCCCCN2CCCC(Nc3ncc(Cl)c(Nc4ccccc4S(=O)(=O)C(C)C)n3)C2)C(C)(C)C)cc1 (stereo not shown),22Rv1,"RNA-seq, measured: TAF12 mRNA",,concentration not given,baseline: DMSO,log2 fold change,-1.09
